# Measured values of several laboratories.
# Protocols differ between the studies behind these lines. “And” joins repeats or separate records; there may be more than shown. ± gives the spread as reported.
# rep main protease: Replicase polyprotein 1ab, main protease (rep, Porcine epidemic diarrhea virus, UniProt P0C6Y4)
# STK3: Serine/threonine-protein kinase 3 (STK3, Homo sapiens, UniProt Q13188)
# Sequence of UniProt Q13188 (whole entry, looked up): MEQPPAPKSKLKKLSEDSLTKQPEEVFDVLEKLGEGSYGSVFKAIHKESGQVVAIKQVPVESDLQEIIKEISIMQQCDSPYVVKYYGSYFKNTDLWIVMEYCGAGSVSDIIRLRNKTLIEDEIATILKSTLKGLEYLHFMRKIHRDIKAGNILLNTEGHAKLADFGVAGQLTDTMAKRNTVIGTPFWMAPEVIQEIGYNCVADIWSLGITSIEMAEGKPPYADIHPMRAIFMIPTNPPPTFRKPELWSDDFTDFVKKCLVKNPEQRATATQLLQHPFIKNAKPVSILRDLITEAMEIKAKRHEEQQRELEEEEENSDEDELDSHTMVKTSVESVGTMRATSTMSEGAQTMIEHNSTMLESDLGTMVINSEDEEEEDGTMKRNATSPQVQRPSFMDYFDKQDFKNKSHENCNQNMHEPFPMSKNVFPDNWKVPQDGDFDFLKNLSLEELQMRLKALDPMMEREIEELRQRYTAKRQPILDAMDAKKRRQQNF
# Sequence of UniProt Q93009 (whole entry, looked up): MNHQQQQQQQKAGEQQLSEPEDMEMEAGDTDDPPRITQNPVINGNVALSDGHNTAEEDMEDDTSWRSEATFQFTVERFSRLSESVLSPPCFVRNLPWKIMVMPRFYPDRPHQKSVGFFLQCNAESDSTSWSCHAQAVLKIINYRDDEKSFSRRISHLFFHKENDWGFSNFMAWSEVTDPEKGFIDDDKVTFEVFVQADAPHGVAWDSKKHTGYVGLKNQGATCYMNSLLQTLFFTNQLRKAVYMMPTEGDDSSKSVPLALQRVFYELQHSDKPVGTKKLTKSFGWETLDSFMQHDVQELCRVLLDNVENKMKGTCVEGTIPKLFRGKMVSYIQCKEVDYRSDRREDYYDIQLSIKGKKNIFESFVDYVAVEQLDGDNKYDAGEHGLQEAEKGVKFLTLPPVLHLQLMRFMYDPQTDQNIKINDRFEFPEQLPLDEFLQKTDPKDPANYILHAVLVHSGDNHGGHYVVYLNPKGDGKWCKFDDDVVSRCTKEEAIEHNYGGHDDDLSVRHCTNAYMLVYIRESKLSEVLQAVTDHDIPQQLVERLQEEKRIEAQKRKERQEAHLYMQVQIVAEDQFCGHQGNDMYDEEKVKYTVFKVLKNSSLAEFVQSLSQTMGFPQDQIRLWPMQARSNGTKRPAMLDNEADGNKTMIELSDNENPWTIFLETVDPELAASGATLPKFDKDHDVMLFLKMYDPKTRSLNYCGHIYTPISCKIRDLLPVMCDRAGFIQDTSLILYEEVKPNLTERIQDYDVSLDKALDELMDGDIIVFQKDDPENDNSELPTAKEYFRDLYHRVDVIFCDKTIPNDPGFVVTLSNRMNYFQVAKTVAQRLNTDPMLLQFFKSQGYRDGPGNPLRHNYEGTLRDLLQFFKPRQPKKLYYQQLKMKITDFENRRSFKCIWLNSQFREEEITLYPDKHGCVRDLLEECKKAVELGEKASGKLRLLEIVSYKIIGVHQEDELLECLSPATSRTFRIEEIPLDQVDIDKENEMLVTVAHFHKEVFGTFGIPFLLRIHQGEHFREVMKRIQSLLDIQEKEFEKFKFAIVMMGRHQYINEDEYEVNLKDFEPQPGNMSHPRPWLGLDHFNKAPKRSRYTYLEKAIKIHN
# Sequence of UniProt Q9UBN7 (whole entry, looked up): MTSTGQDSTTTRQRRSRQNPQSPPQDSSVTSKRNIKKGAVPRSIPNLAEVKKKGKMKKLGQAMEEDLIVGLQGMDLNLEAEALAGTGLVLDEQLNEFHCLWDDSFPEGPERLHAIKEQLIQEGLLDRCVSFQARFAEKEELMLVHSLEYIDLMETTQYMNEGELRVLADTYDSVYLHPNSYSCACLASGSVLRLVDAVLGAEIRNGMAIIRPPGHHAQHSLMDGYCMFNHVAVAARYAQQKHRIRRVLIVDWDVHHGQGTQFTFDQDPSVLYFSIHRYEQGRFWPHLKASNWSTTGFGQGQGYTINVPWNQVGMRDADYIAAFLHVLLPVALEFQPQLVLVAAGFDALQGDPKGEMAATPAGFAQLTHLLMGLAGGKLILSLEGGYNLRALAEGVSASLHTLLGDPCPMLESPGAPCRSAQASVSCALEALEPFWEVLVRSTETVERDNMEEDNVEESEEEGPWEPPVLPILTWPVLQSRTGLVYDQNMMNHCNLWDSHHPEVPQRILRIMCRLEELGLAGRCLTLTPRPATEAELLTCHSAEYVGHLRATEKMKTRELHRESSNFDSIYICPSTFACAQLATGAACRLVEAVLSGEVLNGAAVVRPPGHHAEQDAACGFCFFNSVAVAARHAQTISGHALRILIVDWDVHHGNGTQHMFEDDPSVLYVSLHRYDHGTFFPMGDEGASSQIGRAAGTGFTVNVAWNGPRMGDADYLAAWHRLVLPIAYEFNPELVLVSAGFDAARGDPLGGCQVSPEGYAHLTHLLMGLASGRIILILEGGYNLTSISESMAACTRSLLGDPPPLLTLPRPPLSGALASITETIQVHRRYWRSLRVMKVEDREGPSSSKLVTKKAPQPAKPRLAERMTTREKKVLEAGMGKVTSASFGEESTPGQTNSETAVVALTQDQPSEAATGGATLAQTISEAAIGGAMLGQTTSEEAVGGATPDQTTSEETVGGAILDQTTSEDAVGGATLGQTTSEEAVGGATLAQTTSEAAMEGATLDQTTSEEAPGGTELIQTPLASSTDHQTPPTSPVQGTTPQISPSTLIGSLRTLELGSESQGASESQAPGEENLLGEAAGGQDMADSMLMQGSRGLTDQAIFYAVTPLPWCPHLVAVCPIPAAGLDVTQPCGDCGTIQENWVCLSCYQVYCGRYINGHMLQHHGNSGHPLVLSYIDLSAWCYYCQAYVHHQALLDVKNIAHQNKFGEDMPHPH
# Sequence of UniProt Q6PHR2 (whole entry, looked up): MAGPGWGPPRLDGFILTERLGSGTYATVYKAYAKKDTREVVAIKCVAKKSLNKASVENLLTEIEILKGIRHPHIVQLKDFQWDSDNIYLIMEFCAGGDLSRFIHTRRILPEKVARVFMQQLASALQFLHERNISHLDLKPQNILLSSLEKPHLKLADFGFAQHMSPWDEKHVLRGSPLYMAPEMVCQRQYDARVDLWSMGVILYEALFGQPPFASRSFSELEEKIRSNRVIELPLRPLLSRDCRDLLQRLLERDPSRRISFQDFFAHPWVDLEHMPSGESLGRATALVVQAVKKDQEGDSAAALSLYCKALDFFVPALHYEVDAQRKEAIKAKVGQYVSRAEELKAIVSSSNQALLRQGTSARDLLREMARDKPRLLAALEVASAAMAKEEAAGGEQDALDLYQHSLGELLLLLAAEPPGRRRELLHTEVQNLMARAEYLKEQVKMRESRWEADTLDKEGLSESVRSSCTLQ
# Sequence of UniProt O75716 (whole entry, looked up): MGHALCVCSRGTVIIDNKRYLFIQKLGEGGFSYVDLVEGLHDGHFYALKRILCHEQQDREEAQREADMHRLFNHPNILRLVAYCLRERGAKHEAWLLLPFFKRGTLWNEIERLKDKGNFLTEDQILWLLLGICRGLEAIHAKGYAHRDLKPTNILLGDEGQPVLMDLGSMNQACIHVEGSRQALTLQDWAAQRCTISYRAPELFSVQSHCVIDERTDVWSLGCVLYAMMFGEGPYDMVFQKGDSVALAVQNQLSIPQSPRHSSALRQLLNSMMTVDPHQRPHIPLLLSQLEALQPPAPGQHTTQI
# Sequence of UniProt P54646 (whole entry, looked up): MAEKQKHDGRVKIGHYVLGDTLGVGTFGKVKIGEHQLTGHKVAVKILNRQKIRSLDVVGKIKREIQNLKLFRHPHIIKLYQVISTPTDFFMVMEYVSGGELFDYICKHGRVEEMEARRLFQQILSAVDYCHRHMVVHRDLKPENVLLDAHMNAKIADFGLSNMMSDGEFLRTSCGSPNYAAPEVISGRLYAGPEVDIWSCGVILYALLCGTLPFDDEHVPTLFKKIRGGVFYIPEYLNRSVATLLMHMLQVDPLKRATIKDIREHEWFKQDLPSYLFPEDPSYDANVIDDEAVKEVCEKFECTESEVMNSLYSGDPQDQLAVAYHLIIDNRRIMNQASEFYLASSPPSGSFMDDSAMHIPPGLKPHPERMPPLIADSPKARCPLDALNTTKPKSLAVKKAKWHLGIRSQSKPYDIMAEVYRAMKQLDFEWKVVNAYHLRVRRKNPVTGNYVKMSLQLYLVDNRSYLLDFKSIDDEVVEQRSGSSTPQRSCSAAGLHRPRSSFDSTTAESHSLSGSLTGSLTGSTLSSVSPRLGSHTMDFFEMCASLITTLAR
# Sequence of UniProt Q13133 (whole entry, looked up): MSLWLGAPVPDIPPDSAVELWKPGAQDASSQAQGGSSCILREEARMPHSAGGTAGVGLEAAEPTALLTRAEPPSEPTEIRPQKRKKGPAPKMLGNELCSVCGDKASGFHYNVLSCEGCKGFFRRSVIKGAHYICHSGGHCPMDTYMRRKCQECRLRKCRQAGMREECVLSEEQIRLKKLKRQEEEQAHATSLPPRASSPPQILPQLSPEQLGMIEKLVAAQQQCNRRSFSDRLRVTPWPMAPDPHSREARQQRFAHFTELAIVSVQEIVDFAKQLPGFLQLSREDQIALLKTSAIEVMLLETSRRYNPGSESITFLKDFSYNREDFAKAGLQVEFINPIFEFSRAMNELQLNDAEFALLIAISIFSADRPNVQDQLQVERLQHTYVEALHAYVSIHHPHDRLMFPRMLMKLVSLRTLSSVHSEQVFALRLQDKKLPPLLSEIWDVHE
# Sequence of UniProt P35346 (whole entry, looked up): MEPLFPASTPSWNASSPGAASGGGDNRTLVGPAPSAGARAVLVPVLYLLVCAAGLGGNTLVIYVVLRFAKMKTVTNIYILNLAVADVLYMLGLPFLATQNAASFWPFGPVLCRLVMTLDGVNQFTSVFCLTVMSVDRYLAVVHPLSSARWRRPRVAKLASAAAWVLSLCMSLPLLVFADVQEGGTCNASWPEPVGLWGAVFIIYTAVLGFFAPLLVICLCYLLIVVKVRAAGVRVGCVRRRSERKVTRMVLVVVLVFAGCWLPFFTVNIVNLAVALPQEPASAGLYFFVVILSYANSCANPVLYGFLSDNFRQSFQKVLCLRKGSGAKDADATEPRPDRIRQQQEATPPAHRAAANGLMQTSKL
Structure (SMILES),target,assay,system,setting,inhibition
O=C(Nc1cccc2c(=O)cc(-c3nnn[nH]3)oc12)c1ccc(OCCCCc2ccccc2)cc1,"Volume-regulated anion channel subunit LRRC8C, part LRRC8A IL1 chimera (LRRC8C, Homo sapiens, UniProt Q8TDW0, E6A)","ion current, inhibitor, whole-cell patch clamp","HCT116 LRRC8 knockout, transfected","10 µM, at -100 mV",79.7%
COc1cc(CNC(=O)c2cccc(C#N)c2)cc(Br)c1OC,rep main protease,"enzyme activity, FRET",,concentration not given,inactive
CNc1cc(Oc2cc(C(=O)Nc3cc(N4CCN(C)CC4)cc(C(F)(F)F)c3)ccc2C)ncn1,STK3,kinase activity,,1 µM,-12.9%
Cc1cc2c(cc1N1C(=O)c3cccc4c(CCCO)ccc(c34)C1=O)n(C)c(=O)n2C (racemic),"BPTF (Homo sapiens, UniProt Q12830)","binding, BROMOscan binding",,1000 nM,37%
COc1cc(C(=O)NS(=O)(=O)c2ccccc2C)ccc1Cc1cn(C)c2ccc(NC(=O)OC3CCCC3)cc12,"Volume-regulated anion channel subunit LRRC8C, part LRRC8A IL1 chimera (LRRC8C, Homo sapiens, UniProt Q8TDW0, C43G)","ion current, inhibitor, whole-cell patch clamp",HCT LRRC8-/- cells,"30 µM, +100 mV",96.7% and 98% and 99.4% and 98.2% and 96.6%
COc1cc(CNC(=O)c2ccno2)cc(Br)c1OC,rep main protease,"enzyme activity, inhibitor, FRET",,10 µM,< 0%
O=C(NO)c1ccc(CN2CCCCc3ccccc32)c(F)c1,"CHRM4 (Homo sapiens, UniProt P08173)","radioligand binding, radioligand displacement",,10 µM,16.1%
O=C(C[C@@H](C(F)F)n1ccc(F)n1)N1CCC(O)(Cn2cnc3c(cnn3-c3ccc(F)cc3)c2=O)CC1,"USP7 (Homo sapiens, UniProt Q93009)","enzyme activity, inhibitor",,5 µM,104% and 101%
CC[C@@H]1[C@H](F)C(=O)N[C@@H]1COc1nccc2cc(C(N)=O)c(OC)cc12,STK3,"ATP-site probe binding, ActivX profiling, measured: MST2",THP-1 cell lysate,"0.01 mM, Lys1 site",-6.8%
COc1ccc(C(=O)Nc2ccc(N3C4CCC3CN(c3ccccn3)C4)cc2)cc1,"Alpha-synuclein, fibrils (SNCA, Homo sapiens, UniProt P37840)",radioligand binding,,"1 µM, 50 nM protein, with: [3H]BF2846 4 nM",inhibited
Cc1ccc(C(=O)Nc2ccc(S(=O)(=O)O)c3cc(S(=O)(=O)O)cc(S(=O)(=O)O)c23)cc1NC(=O)c1cccc(NC(=O)Nc2cccc(C(=O)Nc3cc(C(=O)Nc4ccc(S(=O)(=O)O)c5cc(S(=O)(=O)O)cc(S(=O)(=O)O)c45)ccc3C)c2)c1,"Cullin-1, C-terminal domain with ROC1 (Homo sapiens, UniProt Q13616)",FRET,,0.8 µM,50%
CN1CCN(c2cc(-c3ccncc3)c(-c3ccc4ccccc4c3)nn2)CC1,"SSTR5 (Homo sapiens, UniProt P35346)","antagonist, FLIPR",,10 µM,30.5%
COc1cc(-c2cc(C(C)=O)n3ccccc23)cc(OC)c1Cn1ccnc1,"SWI/SNF-related matrix-associated actin-dependent regulator of chromatin subfamily A member 2, isoform B (SMARCA2, Homo sapiens, UniProt P51531)",,,1 µM,-3.85%
C#Cc1cc(-c2cc(Nc3nc(N[C@@H](C)c4ccc(F)cn4)ncc3Cl)n[nH]2)ccc1C=O,"ROS1 (Homo sapiens, UniProt P08922)","enzyme activity, inhibitor",,0.2 µM,1.58%
CC/C(=N\NC(=O)NCc1cccc(O)c1)c1ccc(O)c(C)c1O,"5'-AMP-activated protein kinase catalytic subunit alpha-2, with beta1 gamma1 (PRKAA2, Homo sapiens, UniProt P54646)",kinase activity,,0.1 µM,18.8%
Cc1cc(-c2ccnc3[nH]cc(F)c23)cc(F)c1[C@@]1(O)[C@H](C)CN(C(=O)CN)C[C@@H]1C,"STK16 (Homo sapiens, UniProt O75716)","ATP probe binding, KiNativ, measured: Lys2 site",HEK293T cell lysate,1 µM,56.8%
OCCCN1CC[C@@H]2C[C@H]1c1cc(-c3ccc(C(F)(F)F)cc3)ccc12,"ADRA1D (Homo sapiens, UniProt P25100)","radioligand binding, PDSP competition binding",,10 µM,< 50%
COc1ccc(S(=O)(=O)ON=C2C=C(C)C(=O)C(C)=C2)cc1,"HDAC6 (Homo sapiens, UniProt Q9UBN7)","enzyme activity, inhibitor",,concentration not given,no inhibition
COc1cc(CNC(=O)c2cc3ccccc3n2C)cc(Br)c1OC,rep main protease,"enzyme activity, inhibitor, FRET",,10 µM,< 0%
COc1ccc(F)cc1C(=O)NCc1ccc(-c2nn([C@@H](C)C(F)(F)F)c(N)c2C(N)=O)cc1,"ULK3 (Homo sapiens, UniProt Q6PHR2)","probe binding, competitive chemoproteomics",human PBMCs,10 µM,-1%
COc1cc(CNC(=O)c2cccs2)cc(Br)c1OC,"Replicase polyprotein 1ab, papain-like protease (rep, Porcine epidemic diarrhea virus, UniProt P0C6Y4)","enzyme activity, inhibitor, FRET",,10 µM,< 0%
OO,"Histone acetyltransferase p300, BHC core (EP300, Homo sapiens, UniProt Q09472)","enzyme activity, inhibitor",,"250 µM, p300, no DTT, with: [3H]acetyl-CoA",35 ± 10%
CC(C)(O)c1cn(-c2ccc(-c3cccc(S(C)(=O)=O)c3)cc2)c(C(C)(C)c2ccccc2Cl)n1,"NR1H3 (Homo sapiens, UniProt Q13133)","reporter gene, antagonist",CV-1,"concentration not given, with: pan agonist A 60 nM",62%
COc1cc(CNC(=O)c2cccc3ccccc23)cc(Br)c1OC,rep main protease,"enzyme activity, inhibitor, FRET",,10 µM,< 0%

# For quick reference, copied from above:
Structure (SMILES),target,assay,system,setting,inhibition
COc1cc(CNC(=O)c2cccc3ccccc23)cc(Br)c1OC,rep main protease,"enzyme activity, inhibitor, FRET",,10 µM,< 0%
COc1cc(CNC(=O)c2cccs2)cc(Br)c1OC,"Replicase polyprotein 1ab, papain-like protease (rep, Porcine epidemic diarrhea virus, UniProt P0C6Y4)","enzyme activity, inhibitor, FRET",,10 µM,< 0%
